# Assay results gathered from unrelated publications.
# Each numbered part is a random draw from the data of one study; scales do not carry over between parts. Substitutions count along the parent as printed.

# Sample 1 — target: CCNE2, cyclin fold, Cln2 fusion (human); technique: yeast growth competition, sequencing; medium: yeast; setting: weak parent motif; reference: not given; reading: higher = stronger binding
# Parent: ORC1 docking peptide (human); PRARKRLELGNLG; partner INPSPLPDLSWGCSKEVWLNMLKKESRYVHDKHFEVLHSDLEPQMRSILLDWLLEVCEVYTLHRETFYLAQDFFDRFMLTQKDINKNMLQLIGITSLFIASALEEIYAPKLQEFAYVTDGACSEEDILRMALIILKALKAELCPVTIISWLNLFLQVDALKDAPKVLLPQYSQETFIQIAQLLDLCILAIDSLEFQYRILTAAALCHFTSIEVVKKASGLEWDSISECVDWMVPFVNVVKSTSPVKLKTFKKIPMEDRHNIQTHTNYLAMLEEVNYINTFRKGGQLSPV
Change,normalised enrichment score
R6A,0.287
L12Y,-0.701
L7W,1.12
E8P,0.782
E8K,0.549
R2L,-0.558
R4D,0.295
G13F,0.861

# Sample 2 — technique: DNA-protein interaction ELISA; molecule type: double-stranded DNA, one strand shown; medium: in vitro, bacterial lysate; concentration: not given; setting: whole dsDNA probe, crude lysate protein; reference: highest signal in screen; reading: higher = stronger binding
# Target: Probable WRKY transcription factor 33, N-terminal DNA-binding domain (WRKY33, Arabidopsis thaliana, UniProt Q8S8P5, residues 169-264)
# Construct (chain): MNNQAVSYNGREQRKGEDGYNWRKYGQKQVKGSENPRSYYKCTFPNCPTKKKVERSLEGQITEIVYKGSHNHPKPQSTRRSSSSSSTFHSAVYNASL
Sequence,relative absorbance
AAAAAACCGTCTTATCTCTCGTCCCTAAAA,18.6 % of maximum
AAAAAAGTTCGTGCTTAACCCAGTTTAAAA,21.9 % of maximum
AAAAAATGCAACGCTCCTTTCCCGCTAAAA,20.5 % of maximum
AAAAAACTAGGTATCGGTAGGCGCCGAAAA,33.9 % of maximum
AAAAAATAGGCGTTATGGCTAACACCAAAA,21.2 % of maximum
AAAAAAAGTTCGCGGATTTCGGCCATAAAA,23.6 % of maximum
AAAAAAAGGTTTGGGCTTCACGTTATAAAA,21.4 % of maximum
AAAAAAGTGCGTTCACGCTTGTATCTAAAA,25.2 % of maximum

# Sample 3 — technique: universal PBM; molecule type: double-stranded DNA, one strand shown; medium: in vitro; concentration: 600 nM; reading: higher = stronger binding
# Target: Sal-like protein 4, full length isoform A (SALL4, Homo sapiens, UniProt Q9UJQ4, residues 1-1053)
# Chain of UniProt Q9UJQ4 (whole entry, looked up): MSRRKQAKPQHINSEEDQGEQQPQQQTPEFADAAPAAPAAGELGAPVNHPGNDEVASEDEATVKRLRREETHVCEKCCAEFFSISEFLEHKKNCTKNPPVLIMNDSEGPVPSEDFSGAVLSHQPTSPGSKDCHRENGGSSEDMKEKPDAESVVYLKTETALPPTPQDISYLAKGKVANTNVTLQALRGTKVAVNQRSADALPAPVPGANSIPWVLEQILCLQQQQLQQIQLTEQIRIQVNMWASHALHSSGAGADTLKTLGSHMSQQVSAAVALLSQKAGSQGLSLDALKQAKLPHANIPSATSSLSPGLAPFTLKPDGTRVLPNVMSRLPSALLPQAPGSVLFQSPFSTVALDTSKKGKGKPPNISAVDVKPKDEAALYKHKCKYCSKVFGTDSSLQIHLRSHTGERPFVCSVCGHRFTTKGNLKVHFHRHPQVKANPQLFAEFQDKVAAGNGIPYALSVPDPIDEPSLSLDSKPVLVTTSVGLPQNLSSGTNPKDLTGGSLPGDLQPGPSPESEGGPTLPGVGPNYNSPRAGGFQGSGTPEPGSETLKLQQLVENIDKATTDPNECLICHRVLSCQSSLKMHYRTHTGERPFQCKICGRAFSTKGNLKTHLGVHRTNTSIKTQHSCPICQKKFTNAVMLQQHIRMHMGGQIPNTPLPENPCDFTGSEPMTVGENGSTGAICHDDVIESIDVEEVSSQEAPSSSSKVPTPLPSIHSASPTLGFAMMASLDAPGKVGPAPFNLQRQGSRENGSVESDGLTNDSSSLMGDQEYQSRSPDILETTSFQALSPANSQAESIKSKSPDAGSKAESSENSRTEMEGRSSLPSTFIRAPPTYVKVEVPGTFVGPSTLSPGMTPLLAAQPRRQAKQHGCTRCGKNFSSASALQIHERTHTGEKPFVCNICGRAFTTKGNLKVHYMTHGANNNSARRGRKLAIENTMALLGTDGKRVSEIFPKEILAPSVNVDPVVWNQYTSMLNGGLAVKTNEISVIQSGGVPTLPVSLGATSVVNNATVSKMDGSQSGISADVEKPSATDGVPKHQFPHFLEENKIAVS
# Setting: 8-mer, flanks averaged, mean of replicates
Sequence,E-score
TGACAAAA,0.284
GAGTTTCC,-0.0451
ACTCTCAG,0.00166
ATACTGCA,0.125
CCTGCGGA,-0.207
CCCACTAA,-0.00197
CGGAATTC,-0.0672
CTGGGTGA,-0.165

# Mixed results
Compound,host,medium,concentration,time,endpoint,value
O=S1(=O)N=C(Nc2cccc3[nH]ccc23)c2ccccc21,mouse,microsomes or S9,2 µM,0.5 h,remaining compound,49%

# Excerpt of the above (sample 3):
Sequence,E-score
CGGAATTC,-0.0672
CCCACTAA,-0.00197
